{"data": "Assay results of several laboratories", "cell line": "HeLa", "note": "Compare with care: the assays were run in different laboratories. Values joined by “and” are separate records of one study, mostly repeats; a detail may differ. ± gives the spread as reported."}
{"SMILES": "C[C@@H]1CC[C@@H]([C@@](O)(CNCc2cccc(F)c2)COCc2ccccc2)[C@H](OCc2ccccc2)C1", "test": "cell growth or viability, MTT", "setting": "10 µM, 72 h", "endpoint": "inhibition", "value": "98.7%"}
{"SMILES": "CCCC[N+]1=c2cc3c4cc2[O][Mn-2]1(=[C]=O)(=[C]=O)(=[C]=O)[n+]1ccc(cc1)C(=O)Oc1ccccc1OC(=O)c1cc[n+](cc1)[Mn-2](=[C]=O)(=[C]=O)(=[C]=O)([O]3)[N+]=4CCCC", "test": "MTT", "setting": "50 µM, 48 h, photolysed compound", "endpoint": "viability reduction", "value": "53%"}
{"SMILES": "CCCCCCCCCCCCNC(=S)NCCCC[C@H](NC(=O)OCc1ccccc1)C(=O)N[C@@H](Cc1c[nH]c2ccccc12)C(=O)NC(C)C", "test": "cell growth or viability, MTT", "setting": "72 h", "endpoint": "EC50", "value": "15.6 to 19.2 µM"}
{"SMILES": "CN(C)CCOc1cc(NC(=O)c2cccc(C(=O)Nc3cc(OCCN(C)C)c4ccccc4n3)n2)nc2ccccc12", "test": "cell viability, CellTiter-Glo", "setting": "72 h", "scale": "baseline: IC50 HeLa over WI-38", "endpoint": "selectivity ratio", "value": 1}
{"SMILES": "CCC(=CCc1c(O)cc2c(c1O)C(=O)CC(c1ccc(OC)cc1O)O2)CC (stereo not drawn)", "test": "cell growth or viability, MTT", "setting": "12.5 µM, 48 h", "endpoint": "inhibition", "value": "41.6%"}
{"SMILES": "N#CSCCCCCCOc1ccc2c(-c3ccccc3)cc(=O)oc2c1", "test": "cell growth or viability, SRB", "endpoint": "GI50", "value": "31 µM"}
{"SMILES": "CCC(=CCc1c(O)cc2c(c1O)C(=O)CC(c1cc(OC)ccc1O)O2)CC (stereo not drawn)", "test": "cell growth or viability, MTT", "setting": "12.5 µM, 48 h", "endpoint": "inhibition", "value": "15%"}
{"SMILES": "CC(C)(C)c1ccc([C@H](O)C[C@H](CO)NC(=O)CCCCCOc2ccc3ccccc3c2)cc1", "test": "CERT activity, HPLC-MS/MS lipidomics, item: lactosylceramide 16", "setting": "1 µM, 24 h, not cell-number normalised", "endpoint": "lactosylceramide level", "value": "12000 pmol/sample and 22700 pmol/sample and 21300 pmol/sample"}
{"SMILES": "COc1ccc(COC[C@](O)(CNCc2ccccc2)[C@@H]2CC[C@@H](C)C[C@H]2OCc2ccc(OC)cc2)cc1", "test": "cell growth or viability, MTT", "setting": "10 µM, 72 h", "endpoint": "inhibition", "value": "98.9%"}
{"SMILES": "CCC(=CCc1c(O)cc2c(c1O)C(=O)CC(c1ccc(OC)c(O)c1)O2)CC (stereo not drawn)", "test": "cell growth or viability, MTT", "setting": "50 µM, 48 h", "endpoint": "inhibition", "value": "96.6%"}
{"SMILES": "CCCCCCc1cccc(C(O)CC(CO)NC(=O)CCCCCCCCCCNC(C)=O)c1 (stereo not drawn)", "test": "CERT activity, HPLC-MS/MS lipidomics, item: sphingomyelin 16", "setting": "1 µM, 24 h, not cell-number normalised", "endpoint": "sphingomyelin level", "value": "469000 pmol/sample and 597000 pmol/sample and 595000 pmol/sample"}
{"SMILES": "Cc1cc(C)nc(SCC(=O)Nc2ncc(Cc3cccc4ccccc34)s2)n1", "test": "cell growth or viability, MTT", "setting": "72 h", "endpoint": "EC50", "value": "13.8 to 20.8 µM"}
{"SMILES": "CN(C)c1ccc(-n2cc(COC(=O)[C@]3(C)C=C(C(=O)OC(C)(C)C)C(=O)CC3)nn2)cc1", "test": "quantitative western blot", "setting": "concentration not given, 0 (unit not given), with: EGF", "endpoint": "pERK/ERK ratio", "value": 0.174}
{"SMILES": "CCC(=CCc1c(O)cc2c(c1O)C(=O)CC(c1c(O)cccc1OC)O2)CC (stereo not drawn)", "test": "cell growth or viability, MTT", "setting": "3.125 µM, 48 h", "endpoint": "inhibition", "value": "5.5%"}
{"SMILES": "COc1ccccc1CNC[C@@](O)(COCc1ccccc1)[C@@H]1CC[C@@H](C)C[C@H]1OCc1ccccc1", "test": "cell growth or viability, MTT", "setting": "30 µM, 72 h", "endpoint": "inhibition", "value": "98.3%"}
{"SMILES": "O=C1NCC(COc2cccc3c(NCc4ccccc4)nc(Cl)nc23)O1 (stereo not drawn)", "test": "splicing reporter, item: GLA", "setting": "10 µM, 18 h", "endpoint": "GFP/RFP ratio", "value": 3.54}
{"SMILES": "CCCCCCc1cccc([C@H](O)C[C@H](CO)NC(=O)CCCCCOc2ccc3ccccc3c2)c1", "test": "CERT activity, HPLC-MS/MS lipidomics, item: ceramide 24", "setting": "1 µM, 24 h, not cell-number normalised", "endpoint": "ceramide level", "value": "14200 pmol/sample and 14100 pmol/sample and 9370 pmol/sample"}
{"SMILES": "COc1ccc(CNC[C@](O)(COCc2ccccc2)[C@@H]2CC[C@@H](C)C[C@H]2OCc2ccccc2)cc1", "test": "cell growth or viability, MTT", "setting": "30 µM, 72 h", "endpoint": "inhibition", "value": "97.4%"}
{"SMILES": "Cc1c(COc2cc(OCc3cccc(C#N)c3)c(CNC(CO)(CO)CO)cc2Cl)cccc1-c1cccc(OCCCCCCC(=O)NO)c1", "test": "cell growth or viability, CCK-8", "setting": "10 µM", "endpoint": "inhibition", "value": "54.6%"}
{"SMILES": "Cc1cc(C)c(CNC(=O)c2c(C)n(C(C)C3CCC(NC4(C)COC4)CC3)c3ccccc23)c(=O)[nH]1 (stereo not drawn)", "test": "histone methylation reduction, AlphaLISA, item: H3K27me3", "setting": "72 h", "endpoint": "EC50", "value": "0.0084 µM"}
{"SMILES": "COc1ccc(CNC[C@@](O)(COCc2ccc(F)cc2)[C@@H]2CC[C@@H](C)C[C@H]2OCc2ccc(F)cc2)cc1", "test": "cell growth or viability, MTT", "setting": "30 µM, 72 h", "endpoint": "inhibition", "value": "95.8%"}
{"SMILES": "CCC(=CCc1c(O)cc2c(c1O)C(=O)CC(c1ccccc1O)O2)CC (stereo not drawn)", "test": "cell growth or viability, MTT", "setting": "120 µM, 48 h", "endpoint": "inhibition", "value": "91%"}
{"SMILES": "C[C@@H]1CC[C@@H]([C@@](O)(COCc2ccccc2)Cn2cnc3ccccc32)[C@H](OCc2ccccc2)C1", "test": "cell growth or viability, MTT", "setting": "30 µM, 72 h", "endpoint": "inhibition", "value": "99.1%"}
{"SMILES": "CCC(=CCc1c(O)cc2c(c1O)C(=O)CC(c1ccc(O)cc1)O2)CC (stereo not drawn)", "test": "annexin V/PI", "setting": "24 µM, 48 h", "endpoint": "necrotic cells", "value": "4.61 ± 0.06%"}
{"SMILES": "CC(NC(=O)c1ccccc1)C(CCCCCCCCCCCCCCC(=O)CCCCCCCC(OC(=O)c1ccccc1)C(C)NC(=O)c1ccccc1)OC(=O)c1ccccc1 (stereo not drawn)", "test": "cytotoxicity", "setting": "concentration not given", "endpoint": "growth inhibition", "value": "13 ± 1.31%"}
{"SMILES": "CCC(=CCc1c(O)cc2c(c1O)C(=O)CC(c1cccc(O)c1)O2)CC (stereo not drawn)", "test": "cell growth or viability, MTT", "setting": "3.125 µM, 48 h", "endpoint": "inhibition", "value": "4.12%"}
{"SMILES": "C[C@@H]1CC[C@@H]([C@@](C)(O)Cn2ccnc2)[C@H](OCc2ccccc2)C1", "test": "cell growth or viability, MTT", "setting": "30 µM, 72 h", "endpoint": "inhibition", "value": "70.8%"}
{"SMILES": "CCCCCCCCCCCC(=O)N[C@@H](CO)C[C@@H](O)c1cccc(CCCCCC)c1", "test": "CERT activity, HPLC-MS/MS lipidomics, item: sphingomyelin 20", "setting": "1 µM, 24 h, not cell-number normalised", "endpoint": "sphingomyelin level", "value": "3980 pmol/sample and 2890 pmol/sample and 3170 pmol/sample"}
{"SMILES": "C[C@@H]1O[C@H]2O[C@@H]3C4(O)C(=O)c5cccc(O)c5C(=O)C4(O)O[C@]3(C)[C@]21O (stereo partly drawn)", "test": "cell growth or viability, MTT", "setting": "48 h", "endpoint": "EC50", "value": "83.8 µM"}
{"SMILES": "CCCCCCCCCCCC(=O)N[C@H](CO)C[C@@H](O)c1ccccc1", "test": "cellular CERT activity, HPLC-MS/MS lipidomics", "setting": "1 µM, 24 h", "endpoint": "sphingomyelin C16 amount", "value": "725000 pmol and 811000 pmol and 816000 pmol"}
{"SMILES": "CCC(=CCc1c(O)cc2c(c1O)C(=O)CC(c1cccc(OC)c1O)O2)CC (stereo not drawn)", "test": "cell growth or viability, MTT", "setting": "0.781 µM, 48 h", "endpoint": "inhibition", "value": "0.006%"}
{"SMILES": "COc1cccc(CNC[C@@](O)(COCc2ccccc2)[C@@H]2CC[C@@H](C)C[C@H]2OCc2ccccc2)c1", "test": "cell growth or viability, MTT", "setting": "10 µM, 72 h", "endpoint": "inhibition", "value": "80.3%"}
{"SMILES": "O=[C]=[Mn-2]12(=[C]=O)(=[C]=O)[O]c3cc4c(cc3=[N+]1CCc1ccccc1)[O][Mn-2](=[C]=O)(=[C]=O)(=[C]=O)([N+]=4CCc1ccccc1)[n+]1ccc(cc1)C(=O)Oc1ccccc1OC(=O)c1cc[n+]2cc1", "test": "MTT", "setting": "50 µM, 48 h, photolysed compound", "endpoint": "viability reduction", "value": "55%"}
{"note": "For quick reference, copied from above:"}
{"SMILES": "CCC(=CCc1c(O)cc2c(c1O)C(=O)CC(c1ccc(OC)cc1O)O2)CC (stereo not drawn)", "test": "cell growth or viability, MTT", "setting": "12.5 µM, 48 h", "endpoint": "inhibition", "value": "41.6%"}
{"SMILES": "CC(NC(=O)c1ccccc1)C(CCCCCCCCCCCCCCC(=O)CCCCCCCC(OC(=O)c1ccccc1)C(C)NC(=O)c1ccccc1)OC(=O)c1ccccc1 (stereo not drawn)", "test": "cytotoxicity", "setting": "concentration not given", "endpoint": "growth inhibition", "value": "13 ± 1.31%"}
